Assay results gathered from unrelated publications.
Protocols differ between the studies behind these lines. “And” joins repeats or separate records; there may be more than shown. Numbers after ± are the reported error.

SMILES	tested on	assay	test system	setting	how to read	measurement	result
CNC(=O)C1CCCN(C(=O)C2CC3CCC2N3C(=O)[C@@H]2C[C@@H](O)CN2C(=O)NCc2cccc(Cl)c2F)C1 (mixture of isomers)	CYP3A4 (human)	inhibitor, time-dependent inhibition	–	0.0686 µM, preincubated with NADPH, together with: testosterone substrate	baseline: negative control	remaining activity	96.9%
O=C(C[Se]C(=O)c1cc2ccccc2s1)Nc1cccc(C(F)(F)F)c1	NCI60 breast subpanel	cell growth	–	10 µM, 48 h, one-dose	–	mean growth percent	-63.8%
[BH3-][P+]1(c2ccccc2)CCCCC1	SW-620	Annexin V-FITC/PI flow cytometry	–	IC50, 72 h	–	late apoptotic cells	2.45%
CCN(CC)CC(=O)Nc1cccc(-n2cc(-c3ccc4ccc(-c5cn(-c6cccc(NC(=O)CN(CC)CC)c6)nn5)cc4c3)nn2)c1	RCC4	PCR angiogenesis array, refers to: EFNB2	–	5 x IC50, 6 h, normoxia	baseline: untreated	fold regulation	-2.08
O=C(C[Se]C(=O)c1ccc2ccccc2n1)Nc1cccc(C(F)(F)F)c1	NCI60 breast subpanel	NCI60 five-dose screen	–	–	–	GI50	2060 nM
C1=[N+]2CCCC[N+]3=Cc4ccc5[n]4[Au-]23[n]2c1ccc2-c1nc2ccccc2nc1-5.F[P-](F)(F)(F)(F)F	NCI/ADR-RES	–	–	NCI60 five-dose screen	–	TGI	4 -log M
CCCC[C@H](NC(=O)CCCCCCCNC(=O)CN1CCN(CC(=O)O)CCN(CC(=O)O)CC1)C(=O)N[C@H]1CC(=O)NCCCC[C@@H](C(N)=O)NC(=O)[C@H](Cc2c[nH]c3ccccc23)NC(=O)[C@H](CCCNC(=N)N)NC(=O)[C@@H](Cc2ccccc2)NC(=O)[C@H](Cc2c[nH]cn2)NC1=O [technetium-99m labelled]	–	–	C57 mouse, skin	intravenous, 0.037 MBq, 4 h	–	tissue uptake	0.04 ± 0.03 %ID/g
CC(=O)NCC(=O)N[C@@H](Cc1ccccc1)C(=O)N[C@@H](Cc1ccccc1)C(=O)N[C@@H](Cc1ccc(O)cc1)C(=O)NCC(=O)N[C@@H](Cc1ccc(O)cc1)C(=O)NCC(=O)N[C@@H](CO)C(=O)N[C@@H](CO)C(=O)N[C@@H](CO)C(=O)N[C@@H](CCCNC(=N)N)C(=O)N[C@@H](CCCNC(=N)N)C(=O)N[C@@H](C)C(=O)N1CCC[C@H]1C(=O)N[C@@H](CCC(N)=O)C(=O)N[C@H](C(=O)O)[C@@H](C)O	mouse dermal papilla cells	–	–	100 nM, 48 h	–	EdU-positive cells	26.5%
CC(=O)[O-].O.O.O.O.[Ni+2].[O-]c1ccc(Br)cc1C=NCCN1CCOCC1	–	superoxide scavenging	–	120 µM	–	inhibition	24.1%
Nc1ncc(-c2cc(-c3cnn(CC(F)(F)F)c3)ncc2F)nc1C(=O)NC1CNCC(F)C1 (stereo not drawn)	YANK2	KINOMEscan	–	1 µM	baseline: DMSO control	remaining binding	100%
Cc1nn(-c2cccc(N)c2)c(=O)c2cnc(Nc3ccc(N4CCNCC4)cc3)nc12	MYLK2 (Homo sapiens, UniProt Q9H1R3)	kinase activity, inhibitor, SelectScreen kinase profiling	–	–	–	IC50	493 nM
CC(C)(C)c1cc(-c2ccc3cccnc3n2)nc(-c2ccc3cccnc3n2)c1.[Cl-].[Cl-].[Ru+2].c1cnc2c(c1)ccc1cccnc12	B16-F10	resazurin	–	together with: light 633 nm, 20 mW, 100 J/cm2	–	EC50	166000 ± 5000 nM
CC[n+]1cccc2cc(/C=N/NC(=O)N/N=C/c3ccc4c(ccc[n+]4CC)c3)ccc21	telomeric G4 DNA hybrid-2	FRET melting	–	1 µM, DNA 0.2 µM, together with: duplex DNA competitor 10 µM	–	ΔTm	4.6 ± 0.3 °C
N#Cc1cccc(/C=C/C(=O)c2ccc(O)cc2)c1	U-87 MG	refers to: KLHL24	–	concentration not given	baseline: untreated	fold change	45.6
Cc1cc(Cl)cc(-c2ccnc3cc(CN4C(=O)C5C(C4=O)C5(C)C)sc23)c1C[C@@H]1CNCCO1 (stereo partly drawn)	CHP-212 USP7 V517F knock-in clone	cell growth, SRB	–	0.625 µM, 625 nM in clone KI#2	–	viability	103%
CC1(C)CC[C@@]2(CO)C(=C3C=C[C@@H]4[C@@]5(C)CC[C@H](O)[C@@](C)(CO)[C@@H]5CC[C@@]4(C)[C@]3(C)C[C@@H]2O)C1	HepG2, SIRT1 siRNA	flow cytometry	–	concentration not given, high dose	baseline: control cells	relative ROS fluorescence	0.587 and 1.33 and 0.48
O=C(Nc1cnccc1-c1ccc([18F])nc1)c1ccnc(NC(=O)C2CC2)c1	–	PET imaging	FVB/NJ mice, both sexes, liver	intravenous, 60 min, together with: tariquidar 15 mg/kg iv, ≥2 h before	–	median SUV	7.9
C=CC(=O)N1CCCC(n2c(=O)c3ncccc3n(Cc3ccc(Oc4ccccc4)cc3)c2=O)C1 (stereo not drawn)	MAC-1	cell proliferation, MTT	–	72 h	–	IC50	150 nM

SMILES	tested on	assay	test system	setting	how to read	measurement	result
CO[C@@H]1[C@@H](OC(N)=O)[C@@H](O)[C@H](Oc2ccc3c(O)c(NC(=O)c4ccc(O)c(CC=C(C)C)c4)c(=O)oc3c2C)OC1(C)C	DLD-1 BRCA2-/-	–	–	150 µM, replicate A	baseline: untreated	colony survival	0.339%
Cc1ncsc1-c1ccc(C(C)NC(=O)C2CC(O)CN2C(=O)C(NC(=O)CCCCCCCCCCN2CCCC(Nc3ncc(Cl)c(Nc4ccccc4S(=O)(=O)C(C)C)n3)C2)C(C)(C)C)cc1 (stereo not drawn)	22Rv1	RNA-seq, refers to: TEX19 mRNA	–	concentration not given	baseline: DMSO	log2 fold change	-6.35
CC(C)c1ccc(N(C)c2ccc3c(c2)OCC[C@H]3CNc2cnccc2C(=O)O)cc1	5637	cell growth, CellTiter-Glo	–	7 days	–	IC50	6.11 nM
CC(C)(C)c1cc(-c2ccc3cc4ccccc4nc3n2)nc(-c2ccc3cc4ccccc4nc3n2)c1.Cc1ccncc1.[Cl-].[Cl-].[Ru+2].c1ccc2cc3nc4c5cccnc5c5ncccc5c4nc3cc2c1	B16-F10	photocytotoxicity, resazurin	–	visible light 400-700 nm, 20 mW, 100 J/cm2	–	EC50	6770 nM
O=C1C2CC3CC1CC(C(=O)N1CCN(c4ccc([N+](=O)[O-])c5ncccc45)CC1)(C3)C2	Salmonella typhimurium	Ames test	TA98	0.05 µg/well, with S9	baseline: vehicle	revertant fold increase	1.3
Cn1ncc2cc(-c3cncc(Cl)c3N3CCC4(CCNC4=O)CC3)ccc21	LS174T	gene expression, microarray, refers to: NOD2 mRNA	–	concentration not given, 24 h	baseline: untreated cells	log2 fold change	3.38
C[n+]1ccc(/C=N/NC(=O)c2cncc(C(=O)N/N=C/c3cc[n+](C)cc3)n2)cc1	telomeric G4 DNA hybrid-2	FRET melting	–	1 µM, DNA 0.2 µM, together with: duplex DNA competitor 10 µM	–	ΔTm	6.2 ± 0.6 °C
CN1CCCNC(=O)c2cccc(c2)C(=O)NCCCN(C)CCCNc2cccc3c2C(=O)c2cccc(c2C3=O)NCCC1	SAS	annexin V/PI staining	–	5 µM, 24 h, mean	–	PI-positive cells	10.9%
CNS(=O)(=O)Nc1nccc(Cc2c(C)c3ccc(Oc4ncccc4F)cc3oc2=O)c1F	KU812	cell viability	–	7 days	–	IC50	1.07 nM
Cc1ccncc1.[Cl-].[Cl-].[Ru+2].c1cc(-c2ccc3cccnc3n2)nc(-c2ccc3cccnc3n2)c1.c1ccc2cc3nc4c5cccnc5c5ncccc5c4nc3cc2c1	B16-F10	resazurin	–	together with: light 523 nm, 20 mW, 100 J/cm2	–	EC50	1310 nM
NC(=O)c1ccc(-c2ccccc2Cl)c2c3c([nH]c12)CC[C@H](N)C3	MX1	cell growth or viability	–	–	–	IC50	17.1 nM
COC1CN([C@H]2CC[C@H]([C@@]3(C)Oc4c(Cl)cc(C(=O)NCc5c(SC)cc(C)[nH]c5=O)c(C)c4O3)CC2)C1	–	RNA-seq, refers to: SDC2 mouse homolog	mouse, HT-1376 xenograft, whole blood	dose not given	baseline: vehicle	log2 fold change	2.15
C=CC(=O)Nc1cccc(Cn2ncc3cnc(Nc4cnn(CCOC)c4)nc32)c1	YSK4 human	binding, KINOMEscan	–	100 nM	lower = stronger binding	percent of control	1.4%
CCCC[C@H](NC(=O)COCCOCCNC(=O)CN1CCN(CC(=O)O)CCN(CC(=O)O)CC1)C(=O)N[C@H]1CC(=O)NCCCC[C@@H](C(N)=O)NC(=O)[C@H](Cc2c[nH]c3ccccc23)NC(=O)[C@H](CCCNC(=N)N)NC(=O)[C@@H](Cc2ccccc2)NC(=O)[C@H](Cc2c[nH]cn2)NC1=O [technetium-99m labelled]	–	–	C57 mouse, liver	intravenous, 0.037 MBq, 2 h	–	tissue uptake	0.45 ± 0.04 %ID/g
COc1cc(N2CCN(C(=O)CCOCCNC(=O)[C@@H]3CCCN3)CC2)ccc1Nc1ncc(Cl)c(Nc2ccccc2P(C)(C)=O)n1	NCI-H3122	flow cytometry	–	500 nM, 24 h, mean of replicates	–	G2 phase cells	10%
CCOc1cncc(-c2ccc(NC(=O)C3(c4ccnc(NS(=O)(=O)C5CC5)n4)CCOCC3)nc2)n1	MOLM-1	cell proliferation, CellTiter-Glo	–	72 h, myeloid haematological cancer	–	IC50	57 nM
Cn1ncc(-c2ccc3c(=O)[nH]nc(CN)c3c2)c1-c1c(F)c(Cl)cc(OC2CC2)c1C#N	NOMO-1	cell viability, inhibitor, CellTiter-Glo	–	120 h, baseline-subtracted	–	IC50	30 nM
CSC(=S)N/N=C(\C)c1ccc(S(=O)(=O)N2CCC(C)CC2)cc1	HCT-116	flow cytometry	–	3.66 µM (IC50), 72 h	–	cells in pre-G1 phase	11.2%

Excerpt of the above:
SMILES	tested on	assay	test system	setting	how to read	measurement	result
O=C1C2CC3CC1CC(C(=O)N1CCN(c4ccc([N+](=O)[O-])c5ncccc45)CC1)(C3)C2	Salmonella typhimurium	Ames test	TA98	0.05 µg/well, with S9	baseline: vehicle	revertant fold increase	1.3
Cn1ncc2cc(-c3cncc(Cl)c3N3CCC4(CCNC4=O)CC3)ccc21	LS174T	gene expression, microarray, refers to: NOD2 mRNA	–	concentration not given, 24 h	baseline: untreated cells	log2 fold change	3.38
C[n+]1ccc(/C=N/NC(=O)c2cncc(C(=O)N/N=C/c3cc[n+](C)cc3)n2)cc1	telomeric G4 DNA hybrid-2	FRET melting	–	1 µM, DNA 0.2 µM, together with: duplex DNA competitor 10 µM	–	ΔTm	6.2 ± 0.6 °C
CN1CCCNC(=O)c2cccc(c2)C(=O)NCCCN(C)CCCNc2cccc3c2C(=O)c2cccc(c2C3=O)NCCC1	SAS	annexin V/PI staining	–	5 µM, 24 h, mean	–	PI-positive cells	10.9%
